Published values from different studies.
Every numbered part comes from another study and shows a few of its results, in no order.
Sequence of UniProt P42336 (whole entry, unmodified, looked up): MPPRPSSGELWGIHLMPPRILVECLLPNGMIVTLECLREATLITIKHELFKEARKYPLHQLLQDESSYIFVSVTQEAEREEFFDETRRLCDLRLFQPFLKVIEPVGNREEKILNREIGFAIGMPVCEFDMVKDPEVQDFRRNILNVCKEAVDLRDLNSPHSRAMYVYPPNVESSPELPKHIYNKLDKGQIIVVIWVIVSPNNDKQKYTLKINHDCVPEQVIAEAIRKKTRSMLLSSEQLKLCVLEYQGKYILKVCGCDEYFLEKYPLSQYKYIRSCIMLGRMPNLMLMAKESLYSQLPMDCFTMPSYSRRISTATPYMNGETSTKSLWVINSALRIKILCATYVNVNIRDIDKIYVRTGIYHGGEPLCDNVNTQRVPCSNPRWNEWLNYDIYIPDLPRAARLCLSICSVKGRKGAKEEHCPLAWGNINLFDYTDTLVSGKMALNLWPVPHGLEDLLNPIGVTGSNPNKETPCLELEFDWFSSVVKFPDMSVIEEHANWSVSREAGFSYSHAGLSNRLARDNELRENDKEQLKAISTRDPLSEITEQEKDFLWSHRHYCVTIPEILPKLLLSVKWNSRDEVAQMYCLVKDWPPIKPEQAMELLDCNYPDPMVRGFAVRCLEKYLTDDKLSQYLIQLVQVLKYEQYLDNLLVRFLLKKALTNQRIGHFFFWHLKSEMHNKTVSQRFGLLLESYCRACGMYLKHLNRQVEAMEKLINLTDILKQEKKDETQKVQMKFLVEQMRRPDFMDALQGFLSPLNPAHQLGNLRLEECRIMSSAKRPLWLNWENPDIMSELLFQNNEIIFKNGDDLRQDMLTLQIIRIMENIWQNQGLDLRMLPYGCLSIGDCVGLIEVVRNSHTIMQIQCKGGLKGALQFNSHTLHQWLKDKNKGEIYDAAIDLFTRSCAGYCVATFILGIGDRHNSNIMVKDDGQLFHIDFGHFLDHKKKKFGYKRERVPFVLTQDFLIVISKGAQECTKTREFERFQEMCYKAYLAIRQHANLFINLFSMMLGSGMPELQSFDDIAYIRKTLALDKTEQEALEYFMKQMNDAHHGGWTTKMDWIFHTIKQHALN
Sequence of UniProt Q9BX84 (whole entry, looked up): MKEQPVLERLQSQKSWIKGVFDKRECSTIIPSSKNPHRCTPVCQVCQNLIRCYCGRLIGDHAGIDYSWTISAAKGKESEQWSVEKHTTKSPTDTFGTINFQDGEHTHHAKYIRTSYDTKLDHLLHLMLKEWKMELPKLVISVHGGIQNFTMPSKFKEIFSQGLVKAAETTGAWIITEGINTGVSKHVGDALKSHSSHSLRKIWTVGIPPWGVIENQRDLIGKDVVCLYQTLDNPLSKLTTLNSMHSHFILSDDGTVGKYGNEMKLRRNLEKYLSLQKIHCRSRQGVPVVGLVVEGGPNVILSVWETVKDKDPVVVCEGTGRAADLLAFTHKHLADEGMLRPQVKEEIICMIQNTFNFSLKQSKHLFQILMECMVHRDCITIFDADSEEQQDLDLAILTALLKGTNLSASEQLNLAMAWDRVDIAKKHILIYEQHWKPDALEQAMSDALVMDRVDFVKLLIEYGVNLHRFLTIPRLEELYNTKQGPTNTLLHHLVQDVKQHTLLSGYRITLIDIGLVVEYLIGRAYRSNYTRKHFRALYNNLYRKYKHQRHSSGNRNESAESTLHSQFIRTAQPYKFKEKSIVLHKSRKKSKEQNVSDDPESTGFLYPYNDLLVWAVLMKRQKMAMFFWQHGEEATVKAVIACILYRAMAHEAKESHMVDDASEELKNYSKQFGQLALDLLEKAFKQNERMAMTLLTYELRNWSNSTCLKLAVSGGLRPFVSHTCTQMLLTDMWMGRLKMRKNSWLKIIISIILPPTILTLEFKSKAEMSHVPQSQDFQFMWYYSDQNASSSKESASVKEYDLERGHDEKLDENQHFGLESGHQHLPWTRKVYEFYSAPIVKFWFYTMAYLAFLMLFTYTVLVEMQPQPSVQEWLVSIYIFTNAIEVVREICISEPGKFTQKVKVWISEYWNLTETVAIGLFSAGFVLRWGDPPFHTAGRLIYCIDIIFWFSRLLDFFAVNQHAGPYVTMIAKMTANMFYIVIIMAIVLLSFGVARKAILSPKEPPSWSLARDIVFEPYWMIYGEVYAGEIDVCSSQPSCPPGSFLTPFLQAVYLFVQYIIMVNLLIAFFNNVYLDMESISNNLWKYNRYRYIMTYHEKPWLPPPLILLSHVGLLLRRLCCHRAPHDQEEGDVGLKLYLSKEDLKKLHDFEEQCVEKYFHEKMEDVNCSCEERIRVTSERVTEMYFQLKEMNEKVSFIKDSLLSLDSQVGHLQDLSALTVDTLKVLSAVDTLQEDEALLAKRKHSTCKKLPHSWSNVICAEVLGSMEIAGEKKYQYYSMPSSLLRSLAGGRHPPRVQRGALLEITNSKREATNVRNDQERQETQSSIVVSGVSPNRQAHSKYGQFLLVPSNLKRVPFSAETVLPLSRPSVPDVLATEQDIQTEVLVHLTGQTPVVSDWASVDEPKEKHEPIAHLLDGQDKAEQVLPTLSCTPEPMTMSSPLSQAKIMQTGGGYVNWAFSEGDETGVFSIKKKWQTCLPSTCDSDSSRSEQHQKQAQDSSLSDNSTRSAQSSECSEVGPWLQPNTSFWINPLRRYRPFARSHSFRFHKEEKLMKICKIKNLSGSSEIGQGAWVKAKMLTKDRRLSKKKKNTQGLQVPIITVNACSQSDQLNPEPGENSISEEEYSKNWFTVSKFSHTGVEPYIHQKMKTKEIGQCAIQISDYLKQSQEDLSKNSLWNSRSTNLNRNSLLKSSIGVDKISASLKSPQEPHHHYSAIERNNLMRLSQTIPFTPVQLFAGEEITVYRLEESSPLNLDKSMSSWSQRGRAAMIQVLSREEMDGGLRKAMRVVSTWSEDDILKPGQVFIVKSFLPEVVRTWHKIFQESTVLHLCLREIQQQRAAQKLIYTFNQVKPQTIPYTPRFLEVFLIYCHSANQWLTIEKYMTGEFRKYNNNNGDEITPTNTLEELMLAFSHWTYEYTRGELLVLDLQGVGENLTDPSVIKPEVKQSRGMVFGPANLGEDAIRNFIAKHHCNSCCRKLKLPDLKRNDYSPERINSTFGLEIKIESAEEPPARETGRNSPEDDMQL
Sequence of UniProt Q02156 (whole entry, looked up): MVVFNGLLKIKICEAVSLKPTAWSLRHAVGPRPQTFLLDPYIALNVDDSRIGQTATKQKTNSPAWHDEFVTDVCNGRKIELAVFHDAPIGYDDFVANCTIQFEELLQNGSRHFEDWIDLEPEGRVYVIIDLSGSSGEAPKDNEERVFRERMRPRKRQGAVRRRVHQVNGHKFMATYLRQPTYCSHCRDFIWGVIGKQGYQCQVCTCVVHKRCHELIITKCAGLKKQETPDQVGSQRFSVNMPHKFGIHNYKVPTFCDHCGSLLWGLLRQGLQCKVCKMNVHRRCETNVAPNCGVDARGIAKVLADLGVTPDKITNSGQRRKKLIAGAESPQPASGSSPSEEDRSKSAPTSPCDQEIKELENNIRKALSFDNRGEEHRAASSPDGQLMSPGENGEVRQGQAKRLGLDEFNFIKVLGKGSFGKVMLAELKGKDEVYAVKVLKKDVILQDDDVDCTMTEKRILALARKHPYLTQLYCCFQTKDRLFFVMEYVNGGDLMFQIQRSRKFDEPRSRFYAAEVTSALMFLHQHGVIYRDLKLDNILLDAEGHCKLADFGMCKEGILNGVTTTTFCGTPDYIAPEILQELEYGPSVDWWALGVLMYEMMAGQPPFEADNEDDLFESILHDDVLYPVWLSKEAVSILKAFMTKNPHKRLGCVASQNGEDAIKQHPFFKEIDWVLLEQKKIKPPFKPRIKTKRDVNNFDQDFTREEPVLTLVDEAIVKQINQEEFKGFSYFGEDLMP
Sequence of UniProt P42685 (whole entry, looked up): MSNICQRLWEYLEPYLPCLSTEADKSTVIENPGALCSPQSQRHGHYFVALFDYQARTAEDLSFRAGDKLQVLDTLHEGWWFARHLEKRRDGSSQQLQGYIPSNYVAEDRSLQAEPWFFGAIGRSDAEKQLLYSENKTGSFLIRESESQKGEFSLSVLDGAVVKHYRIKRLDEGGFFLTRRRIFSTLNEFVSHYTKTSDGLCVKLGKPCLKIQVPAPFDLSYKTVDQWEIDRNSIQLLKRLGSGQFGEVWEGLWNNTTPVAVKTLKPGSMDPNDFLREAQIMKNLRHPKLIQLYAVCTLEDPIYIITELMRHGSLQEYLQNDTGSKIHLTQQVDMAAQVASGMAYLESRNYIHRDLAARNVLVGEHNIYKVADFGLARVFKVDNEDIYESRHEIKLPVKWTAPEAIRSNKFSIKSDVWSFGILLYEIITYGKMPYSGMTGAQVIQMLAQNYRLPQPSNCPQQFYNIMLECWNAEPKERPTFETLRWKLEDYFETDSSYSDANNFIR

Set 1 — read-out: cell-free assay; technique: competition with immobilised ligand; tested at: 1 µM
Compound: CC1=C(C#N)C(c2ccc3c(c2)c(NC(=O)c2ccccc2C)nn3C)C(C#N)=C(C)N1
The remaining binding was 100% (Phosphatidylinositol 4,5-bisphosphate 3-kinase catalytic subunit alpha isoform (PIK3CA, Homo sapiens, UniProt P42336, M1043I)).
Tyrosine-protein kinase FRK (FRK, Homo sapiens, UniProt P42685) — remaining binding: 100%.
For Protein kinase C theta type (PRKCQ, Homo sapiens, UniProt Q04759): remaining binding read 55%.
For Inhibitor of nuclear factor kappa-B kinase subunit beta (IKBKB, Homo sapiens, UniProt O14920): remaining binding read 95%.
It gave 99% for remaining binding (Calcium/calmodulin-dependent protein kinase type 1G (CAMK1G, Homo sapiens, UniProt Q96NX5)).
The remaining binding was 92% (Phosphatidylinositol 5-phosphate 4-kinase type-2 gamma (PIP4K2C, Homo sapiens, UniProt Q8TBX8)).
For Mast/stem cell growth factor receptor Kit (KIT, Homo sapiens, UniProt P10721, V559D): remaining binding read 100%.
Casein kinase I isoform gamma-3 (CSNK1G3, Homo sapiens, UniProt Q9Y6M4) — remaining binding: 100%.
Tyrosine-protein kinase ZAP-70 (ZAP70, Homo sapiens, UniProt P43403) — remaining binding: 90%.
For NT-3 growth factor receptor (NTRK3, Homo sapiens, UniProt Q16288): remaining binding read 83%.
It gave 82% for remaining binding (Serine/threonine-protein kinase 17A (STK17A, Homo sapiens, UniProt Q9UEE5)).
The remaining binding was 85% (Protein kinase C epsilon type (PRKCE, Homo sapiens, UniProt Q02156)).
The remaining binding was 64% (Receptor-type tyrosine-protein kinase FLT3 (FLT3, Homo sapiens, UniProt P36888, F691L/ITD)).
For Mitogen-activated protein kinase kinase kinase 12 (MAP3K12, Homo sapiens, UniProt Q12852): remaining binding read 80%.
It gave 93% for remaining binding (Ephrin type-A receptor 4 (EPHA4, Homo sapiens, UniProt P54764)).
Calcium/calmodulin-dependent protein kinase type II subunit gamma (CAMK2G, Homo sapiens, UniProt Q13555) — remaining binding: 100%.
For eIF-2-alpha kinase GCN2, C-terminal kinase domain (EIF2AK4, Homo sapiens, UniProt Q9P2K8, S808G): remaining binding read 61%.
For Phosphatidylinositol 4,5-bisphosphate 3-kinase catalytic subunit alpha isoform (PIK3CA, Homo sapiens, UniProt P42336, I800L): remaining binding read 93%.
It gave 91% for remaining binding (Transient receptor potential cation channel subfamily M member 6 (TRPM6, Homo sapiens, UniProt Q9BX84)).

Set 2 — read-out: enzyme activity; mode: inhibitor; tested at: 0.5 µM; reference: control
Target: Serine/threonine-protein kinase PAK 4 (PAK4, Homo sapiens, UniProt O96013)
Sequence of UniProt O96013 (whole entry, looked up): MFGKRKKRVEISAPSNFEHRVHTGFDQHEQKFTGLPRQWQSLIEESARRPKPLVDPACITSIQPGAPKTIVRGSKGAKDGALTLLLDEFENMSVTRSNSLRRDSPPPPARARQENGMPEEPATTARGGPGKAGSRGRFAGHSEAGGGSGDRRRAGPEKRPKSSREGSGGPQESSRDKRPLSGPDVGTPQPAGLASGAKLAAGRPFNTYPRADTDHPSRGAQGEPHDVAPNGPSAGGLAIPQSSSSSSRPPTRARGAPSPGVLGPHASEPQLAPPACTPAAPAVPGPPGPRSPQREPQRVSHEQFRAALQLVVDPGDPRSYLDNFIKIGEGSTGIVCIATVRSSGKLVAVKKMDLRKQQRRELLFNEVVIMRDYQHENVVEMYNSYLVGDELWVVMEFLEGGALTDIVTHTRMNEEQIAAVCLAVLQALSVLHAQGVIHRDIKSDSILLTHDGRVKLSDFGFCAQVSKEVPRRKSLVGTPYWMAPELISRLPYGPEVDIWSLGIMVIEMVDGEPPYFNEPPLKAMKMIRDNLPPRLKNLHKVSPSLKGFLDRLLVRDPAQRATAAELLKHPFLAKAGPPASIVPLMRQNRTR
The remaining activity of `O=C(Nc1cccc(Nc2nccc(Nc3cccc(C(F)(F)F)c3)n2)c1)C1CC1` is reported as 87.4%.
For `COc1cc2ncnc(Nc3ccc(O)c(Br)c3)c2cc1OC`, the remaining activity was 95.7%.
The remaining activity of `N#Cc1c(NC(=O)c2cccc3ccccc23)sc2c1CCCC2` is reported as 95.2%.
`N#C/C(=C\c1ccc(O)c(O)c1)C(=O)NCc1ccccc1` gave a remaining activity of 111%.
The remaining activity of `COc1cc2ncnc(Nc3cccc(Cl)c3)c2cc1OC` is reported as 76.5%.
For `c1ccc(-c2[nH]ncc2-c2ccnc3ccccc23)nc1`, the remaining activity was 76.9%.
For `Ic1cccc(CSc2nnc(-c3ccncc3)o2)c1`, the remaining activity was 83.6%.

Set 3 — technique: phase 2a clinical trial
SMILES: CC(C)n1cnc(-c2ccc(F)cc2)c1-c1ncc(C(=O)Nc2ccc(N3CCN(C)CC3)cc2)[nH]1
Host: patients with idiopathic pulmonary fibrosis
The “patients with treatment-emergent adverse events” was 0% (measured: electrocardiogram T wave abnormal; dose not given, Grade 5, all drug arms total).
It gave 0% for “patients with treatment-emergent adverse events” (measured: hepatic function abnormal; 30 mg once daily, Grade 3).
The “patients with treatment-emergent adverse events” was 0% (measured: lumbar vertebral fracture; 60 mg once daily, Grade 5, maximum intensity).
For measured: drug-induced liver injury; dose not given, Grade 1, all drug arms total: “patients with treatment-emergent adverse events” read 0%.
measured: benign prostatic hyperplasia; dose not given, Grade 3, maximum intensity, all drug arms total — “patients with treatment-emergent adverse events”: 0%.
It gave 0% for “patients with treatment-emergent adverse events” (measured: left ventricular dysfunction; 30 mg once daily, Grade 4).
The “patients with treatment-emergent adverse events” was 0% (measured: electrocardiogram QT prolonged; dose not given, Grade 2, all drug arms total).
For measured: lumbar vertebral fracture; 30 mg once daily, Grade 2, maximum intensity: “patients with treatment-emergent adverse events” read 0%.
It gave 0% for “patients with treatment-emergent adverse events” (measured: interstitial lung disease; dose not given, Grade 4, all drug arms).
It gave 0% for “patients with treatment-emergent adverse events” (measured: gastro-oesophageal reflux disease; 30 mg once daily, Grade 4).
The “patients with treatment-emergent adverse events” was 0% (measured: drug-induced liver injury; 60 mg once daily, Grade 3).
measured: protein urine present; dose not given, Grade 3, all drug arms total — “patients with treatment-emergent adverse events”: 0%.

Mixed results
The Hill slope of `COc1cc(C(=O)OCCCN2CCCN(CCCOC(=O)c3cc(OC)c(OC)c(OC)c3)CC2)cc(OC)c1OC` is reported as -0.856 (Equilibrative nucleoside transporter 2 (Homo sapiens, UniProt Q14542); adenosine uptake, inhibitor; Xenopus laevis oocytes; added: [3H]adenosine).
